Experimental data collected from several papers.
Lines come from different studies, so protocols differ. ± gives the spread as reported.

assay	system	setting	how to read	measurement	result	Compound
microPET imaging	female athymic nude mouse, U-87 MG xenograft, U-87 MG tumour	intravenous, 3.7 MBq, 2 h post-injection	–	tumour uptake	1.03 ± 0.12 %ID/g	CC(F)C(=O)NC[C@@H]1O[C@H](C(=O)NCCCC[C@@H]2NC(=O)[C@@H](Cc3ccc(O)cc3)NC(=O)[C@H](CC(=O)O)NC(=O)CNC(=O)[C@H](CCCNC(=N)N)NC2=O)[C@H](O)[C@H](O)[C@H]1O (some centres unmarked) [fluorine-18 labelled]
–	C57 mouse, B16/F1 melanoma	4 h	relative to: tumour over skin	tumour to skin uptake ratio	68.9	CCCC[C@H](NC(=O)CNC(=O)CNC(=O)CN1CCN(CC(=O)O)CCN(CC(=O)O)CCN(CC(=O)O)CC1)C(=O)N[C@H]1CC(=O)NCCCC[C@@H](C(N)=O)NC(=O)[C@H](Cc2c[nH]c3ccccc23)NC(=O)[C@H](CCCNC(=N)N)NC(=O)[C@@H](Cc2ccccc2)NC(=O)[C@H](Cc2c[nH]cn2)NC1=O [indium-111 labelled]
–	BALB/c nude mouse, male, HCT-116 xenograft, tumour	intravenous, 5 mg/kg, 1 h	relative to: doxorubicin	tumour accumulation	6.4 fold	COc1cccc2c1C(=O)c1c(O)c3c(c(O)c1C2=O)CC(O)(C(=O)CO)CC3OC1CC(NC(=O)C[C@H](N)C(=O)O)C(O)C(C)O1 (some centres unmarked)
–	C57 mouse, B16/F1 melanoma	2 h	relative to: tumour over skin	tumour to skin uptake ratio	24.3	CCCC[C@H](NC(=O)[C@H](CCC(=O)O)NC(=O)CNC(=O)CN1CCN(CC(=O)O)CCN(CC(=O)O)CCN(CC(=O)O)CC1)C(=O)N[C@H]1CC(=O)NCCCC[C@@H](C(N)=O)NC(=O)[C@H](Cc2c[nH]c3ccccc23)NC(=O)[C@H](CCCNC(=N)N)NC(=O)[C@@H](Cc2ccccc2)NC(=O)[C@H](Cc2c[nH]cn2)NC1=O [indium-111 labelled]
–	female athymic nude mouse, U-87 MG xenograft, U-87 MG tumour	dose not given, 1 h	–	tumour uptake	2.1 ± 0.2 %ID/g	CC(F)C(=O)NC[C@@H]1O[C@H](C(=O)N[C@@H](CCC(=O)NCCCC[C@@H]2NC(=O)[C@@H](Cc3ccc(O)cc3)NC(=O)[C@H](CC(=O)O)NC(=O)CNC(=O)[C@H](CCCNC(=N)N)NC2=O)C(=O)NCCCC[C@@H]2NC(=O)[C@@H](Cc3ccc(O)cc3)NC(=O)[C@H](CC(=O)O)NC(=O)CNC(=O)[C@H](CCCNC(=N)N)NC2=O)[C@H](O)[C@H](O)[C@H]1O (some centres unmarked) [fluorine-18 labelled]
–	mouse SK-OV-3 xenograft, tumour	intraperitoneal, 100 mg/kg single, 1 h	–	tumour concentration	22.7 ± 2.1 µM	Cc1nc(NC(=O)N2CCC[C@H]2C(N)=O)sc1-c1csc(C(C)(C)C)n1
–	mouse, PC-3 tumour xenograft, tumour	intravenous, 200 pmol, 1 h	–	tumour uptake	9.9 ± 1.3 %ID/g	CC(C)C[C@H](NC(=O)C[C@H](O)[C@H](CC(C)C)NC(=O)[C@H](Cc1c[nH]cn1)NC(=O)CNC(=O)[C@@H](NC(=O)[C@H](C)NC(=O)[C@H](Cc1c[nH]c2ccccc12)NC(=O)[C@H](CCC(N)=O)NC(=O)[C@@H](Cc1ccccc1)NC(=O)CCNC(=O)CCNC(=O)CN1CCN(CC(=O)O)CCN(CC(=O)O)CCN(CC(=O)O)CC1)C(C)C)C(N)=O [gallium-68 labelled]
biodistribution	SCID mouse, Daudi lymphoma xenograft	1 h post-injection	–	tumour to gut ratio	16.5 ± 6.5	CN1C(=O)[C@@H](Cc2ccc(O)c(I)c2)NC(=O)CNC(=O)[C@H](Cc2ccc3ccccc3c2)NC(=O)[C@H](CCCNC(=N)N)NC(=O)[C@H]1CCCNC(=O)c1ccc(CNC(=O)CN2CCN(CC(=O)O)CCN(CC(=O)O)CC2)cc1 [fluorine-18 labelled]
–	mouse, CWR22Rv1 tumour xenograft, tumour	dose not given, 4 h	–	tumour uptake retention	2.33%	O=C(O)CCC(NP(=O)(O)OCCC[C@@H](NC(=O)CC[C@H](NC(=O)CCCCCNC(=O)c1ccc([18F])cc1)C(=O)O)C(=O)O)C(=O)O (some centres unmarked)
microPET imaging	female athymic nude mouse, U-87 MG xenograft, U-87 MG tumour	intravenous, 3.7 MBq, 1 h post-injection	–	tumour uptake	2.32 ± 0.28 %ID/g	N=C(N)NCCC[C@@H]1NC(=O)[C@H](CCCCNC(=O)CC[C@H](NC(=O)[C@H]2O[C@@H](CNC(=O)c3ccc(F)cc3)[C@H](O)[C@@H](O)[C@H]2O)C(=O)NCCCC[C@@H]2NC(=O)[C@@H](Cc3ccc(O)cc3)NC(=O)[C@H](CC(=O)O)NC(=O)CNC(=O)[C@H](CCCNC(=N)N)NC2=O)NC(=O)[C@@H](Cc2ccc(O)cc2)NC(=O)[C@H](CC(=O)O)NC(=O)CNC1=O [fluorine-18 labelled]
biodistribution	C57BL/6J mouse male tumour-bearing	1 h post injection, unblocked	relative to: tumour over blood	tumour to blood ratio	21.5 ± 14.6	CCCC[C@H](NC(=O)CN1CCC(NC(=O)CN2CCN(CC(=O)O)CCN(CC(=O)O)CCN(CC(=O)O)CC2)CC1)C(=O)N[C@H]1CC(=O)NCCCC[C@@H](C(N)=O)NC(=O)[C@H](Cc2c[nH]c3ccccc23)NC(=O)[C@H](CCCNC(=N)N)NC(=O)[C@@H](Cc2ccccc2)NC(=O)[C@H](Cc2c[nH]cn2)NC1=O [gallium-68 labelled]

For quick reference, copied from above:
assay	system	setting	how to read	measurement	result	Compound
biodistribution	C57BL/6J mouse male tumour-bearing	1 h post injection, unblocked	relative to: tumour over blood	tumour to blood ratio	21.5 ± 14.6	CCCC[C@H](NC(=O)CN1CCC(NC(=O)CN2CCN(CC(=O)O)CCN(CC(=O)O)CCN(CC(=O)O)CC2)CC1)C(=O)N[C@H]1CC(=O)NCCCC[C@@H](C(N)=O)NC(=O)[C@H](Cc2c[nH]c3ccccc23)NC(=O)[C@H](CCCNC(=N)N)NC(=O)[C@@H](Cc2ccccc2)NC(=O)[C@H](Cc2c[nH]cn2)NC1=O [gallium-68 labelled]
